Measurements from different studies.
± marks the error that the study gave.

| Structure (SMILES) | tested on | assay | system | setting | scale | quantity | result |
| --- | --- | --- | --- | --- | --- | --- | --- |
| N=C(N)NCCC[C@@H]1NC(=O)[C@H](Cc2c[nH]c3ccccc23)NC(=O)[C@@H](CC2CCCCC2)NC(=O)[C@@H]2CCCN2C(=O)[C@@H](NC(=O)CCc2ccccc2)CCCNC1=O | – | – | C57BL/6J mice, spinal cord | intraperitoneal, 1 mg/kg | – | elimination half-life | 39.5 min |
| [64Cu+2].c1ccc(CNCc2ccc(CN3CCCN4CCNCCCN(CC4)CC3)cc2)nc1 | CXCR4 | – | NOD/SCID mouse, U87 and U87-stb-CXCR4 xenografts, spleen | iv, 90 min, ex vivo | – | tissue uptake | 16.4 ± 2.76 %ID/g |
| CCCCCCCCCCCC(=O)Nc1ccccc1SSc1ccccc1NC(=O)CCCCCCCCCCC | HaCaT | cell growth or viability, MTT | – | 2.5 mg/mL, 24 h | – | viability | 92.1% |
| N#CCc1cccc(Cl)c1-c1ccc2[nH][11c](=O)[nH]c2c1 | P-glycoprotein and Bcrp | ex vivo brain uptake | mouse | injection, 30 min, added: tariquidar and Ko143 | reference: without inhibitors | brain-to-blood ratio increase | 233% |
| C=CC(=O)Oc1c(C(C)c2cc(C(C)(C)CC)cc(C(C)(C)CC)c2O)cc(C(C)(C)CC)cc1C(C)(C)CC (stereo not shown) | Cyprinus carpio | everted gut sac | intestine | concentration not given, 24 h, 23 °C | – | concentration in mucosal solution | 85.8 ± 4.2 µg/mL |
| O=c1c(/C=N/NC(=S)N/N=C/c2ccccc2O)coc2ccccc12 | Mn2+ complex | potentiometric titration | – | 25 °C | – | log stability constant | 16.2 |
| CCCC[C@@H]1NC(=O)[C@@H](NC(=O)[C@H](CCC(=O)O)NC(=O)CNC(=O)CN2CCN(CC(=O)O)CCN(CC(=O)O)CCN(CC(=O)O)CC2)CCCCNC(=O)C[C@@H](C(N)=O)NC(=O)[C@H](C(C)C)NC(=O)[C@@H]2CCCN2C(=O)[C@H](CCCNC(=N)N)NC(=O)CNC(=O)[C@H](Cc2c[nH]c3ccccc23)NC(=O)[C@H](CCCNC(=N)N)NC(=O)[C@@H](Cc2ccccc2)NC(=O)[C@H](Cc2c[nH]cn2)NC(=O)[C@H](CCC(=O)O)NC1=O [gallium-67 labelled] | – | – | C57 mice, B16/F1 flank melanoma, stomach | intravenous, 2 h, added: blocking peptide 10 µg | – | tissue uptake | 0.06 ± 0.05 %ID/g |
| COc1ccc2cc(-c3ccc(-c4ccc(C)cn4)nc3)oc2c1 | zinc(II) | – | neutral aqueous solution | zinc saturation | reference: zinc-free ligand, positive = red shift | emission wavelength shift | 46 nm |
| Cn1c(=O)oc2ccc(-c3ccc(CC(C#N)NC(=O)C4CNCCCO4)c(F)c3)cc21 (stereo not shown) | – | – | human | oral, 20 mg once daily, TEAE, multiple ascending dose | – | chest pain incidence | 0% |
| COc1cc(O)cc2c1-c1ccc(O)c(OC)c1CC2 | BV-2 | cell growth or viability, MTT | – | 40 µM, 24 h | – | viability | 94.3% |
| CCCCCCCCCCCCCC(=O)NCCCC[C@H](NC(=O)[C@H](CCCNC(=N)N)NC(C)=O)C(=O)N[C@@H](CCCNC(=N)N)C(=O)O | CCRF-CEM | flow cytometry | – | 50 µM, 2 h, 37 °C, serum-free medium, added: fluorescein-labelled lamivudine 5 µM | reference: labelled lamivudine alone | cellular uptake | 1.1 fold |
| Cc1cc(CCC(=O)OCC(C)(C)C2OCC3(CO2)COC(C(C)(C)COC(=O)CCc2cc(C)c(O)c(C(C)(C)C)c2)OC3)cc(C(C)(C)C)c1O (stereo not shown) | Cyprinus carpio | everted gut sac | intestine | concentration not given, 24 h, 23 °C | – | concentration in mucosal solution | 25.9 ± 1.8 µg/mL |
| CC(=O)N[C@H](C(=O)N[C@H](C(=O)N[C@@H](CCCNC(=N)N)C(=O)N1Cc2ccccc2C[C@H]1C(=O)N[C@@H](Cc1ccccc1)C(N)=O)C1CCCCC1)C(C)C | human PBMC | Bio-Plex multiplex, item: TNF-a | – | 500 µg/mL, 24 h | – | cytokine level | 7 ± 3.1 pg/mL |
| COc1cc(O)c(-c2c(O)cc(OC)c3c2ccc2cc(O)ccc23)c2ccc3ccccc3c12 | BV-2 | cell growth or viability, MTT | – | 20 µM, 24 h | – | viability | 96.4% |
| Nc1ccccc1C(=O)NS(=O)(=O)OC[C@H]1O[C@@H](n2cnc3c(N)ncnc32)[C@H](O)[C@@H]1O | Pseudomonas aeruginosa | LC-MS/MS of lysate | PA14, LB medium | 1000 µM, 30 min, OD600 0.5 | – | intracellular concentration | 20 to 30 µM |
| O=C(O)CCC(NP(=O)(O)OCCC[C@@H](NC(=O)CC[C@H](NC(=O)CCCCCNC(=O)c1ccc([18F])cc1)C(=O)O)C(=O)O)C(=O)O (stereo partly shown) | CWR22Rv1 tumour model | – | host not given, blood | 4 h, tumour-bearing | – | tracer uptake | 0.011 %ID/g |
| CCCCCCCCCCCCCC(=O)Nc1ccccc1SSc1ccccc1NC(=O)CCCCCCCCCCCCC | HaCaT | cell growth or viability, MTT | – | 5 mg/mL, 24 h | – | viability | 100% |
| [64Cu+2].c1cnc(CNCc2ccc(CN3CCCN4CCNCCCN(CC4)CC3)cc2)nc1 | CXCR4 | – | NOD/SCID mouse, U87 and U87-stb-CXCR4 xenografts, liver | iv, 120 min, ex vivo | – | tissue uptake | 91 ± 16.8 %ID/g |
| O=C(O)[C@@H]1C[C@@H](O)CN1C(=O)[C@@H]1CCCN1 | iron(III) ion | complex formation, Van't Hoff plot | aqueous 0.15 M NaCl | MAH−1 complex species | – | ΔS | -0.97 kJ/mol/K |

Some of these lines once more:
| Structure (SMILES) | tested on | assay | system | setting | scale | quantity | result |
| --- | --- | --- | --- | --- | --- | --- | --- |
| CCCC[C@@H]1NC(=O)[C@@H](NC(=O)[C@H](CCC(=O)O)NC(=O)CNC(=O)CN2CCN(CC(=O)O)CCN(CC(=O)O)CCN(CC(=O)O)CC2)CCCCNC(=O)C[C@@H](C(N)=O)NC(=O)[C@H](C(C)C)NC(=O)[C@@H]2CCCN2C(=O)[C@H](CCCNC(=N)N)NC(=O)CNC(=O)[C@H](Cc2c[nH]c3ccccc23)NC(=O)[C@H](CCCNC(=N)N)NC(=O)[C@@H](Cc2ccccc2)NC(=O)[C@H](Cc2c[nH]cn2)NC(=O)[C@H](CCC(=O)O)NC1=O [gallium-67 labelled] | – | – | C57 mice, B16/F1 flank melanoma, stomach | intravenous, 2 h, added: blocking peptide 10 µg | – | tissue uptake | 0.06 ± 0.05 %ID/g |
| CCCCCCCCCCCCCC(=O)Nc1ccccc1SSc1ccccc1NC(=O)CCCCCCCCCCCCC | HaCaT | cell growth or viability, MTT | – | 5 mg/mL, 24 h | – | viability | 100% |
